Measurements from different studies.
Each line is one published result; not all experiments were run side by side. ± gives the spread as reported.
4'-phosphopantetheinyl transferase PptT: 4'-phosphopantetheinyl transferase PptT (Mycobacterium tuberculosis, UniProt O33336)
CNR1 I267L: Cannabinoid receptor 1 (CNR1, Homo sapiens, UniProt P21554, I267L)

CC(C)C[C@H](NC(=O)[C@H](Cc1ccccc1)NC(=O)CNC(=O)CNC(=O)[C@@H](N)Cc1ccc(O)cc1)C(=O)O  current amplitude (K+ current, agonist, photo-uncaging; rat locus coeruleus neurons; concentration not given, dendritic currents): 59.6 ± 4.3 pA
Cc1nc(=O)c2cc(CN(C)c3ccc(C(=O)NCc4cc(=O)[nH]c(=O)[nH]4)s3)ccc2[nH]1  Hill slope (4'-phosphopantetheinyl transferase PptT; enzyme activity, inhibitor, fluorescence polarization): 1
O=S(=O)(O)CCOCC1CSSCC(COCCS(=O)(=O)O)SS1 (centres unmarked)  kon (DNA-binding response regulator MtrA, C-terminal domain (mtrA, Mycobacterium tuberculosis, UniProt P9WGM7); binding, LSPR): 3200 ± 520 M⁻¹ s⁻¹
N=C(N)NCCC[C@@H]1NC(=O)[C@H](CCCCNC(=O)CC[C@H](NC(=O)CCOCCOCCOCCOCCNC(=O)CN2CCN(CC(=O)O)CCN(CC(=O)O)CCN(CC(=O)O)CC2)C(=O)NCCCC[C@@H]2NC(=O)[C@@H](Cc3ccccc3)NC(=O)[C@H](CC(=O)O)NC(=O)CNC(=O)[C@H](CCCNC(=N)N)NC2=O)NC(=O)[C@@H](Cc2ccccc2)NC(=O)[C@H](CC(=O)O)NC(=O)CNC1=O [indium-111 labelled]  tumour to tissue ratio (athymic nude mice, female, U-87 MG glioma xenograft, tumour and liver; intravenous, 4 h; relative to: tumour over liver): 1.84 ± 0.23
COc1cc(C(=O)NCCOCCOCCOCCNC(=O)c2ccc([18F])nc2)ccc1NC(=O)C1NC(CC(C)(C)C)C(C#N)(c2ccc(Cl)cc2F)C1c1cccc(Cl)c1F (centres unmarked)  tracer uptake (SJSA-1 tumour model; host not given, stomach; 1 h, tumour-bearing): 0.75 %ID/g
CCCCCn1cc(C(=O)c2cccc3ccccc23)c2ccccc21  Emax decrease (CNR1 I267L; Gαi1 engagement, agonist, BRET; relative to: wild type): ~65%
N=C(N)NCCC[C@@H]1NC(=O)[C@H](CCCCNC(=O)CCOCCOCCOCCOCCNC(=O)CN2CCN(CC(=O)O)CCN(CC(=O)O)CCN(CC(=O)O)CC2)NC(=O)[C@@H](Cc2ccccc2)NC(=O)[C@H](CC(=O)O)NC(=O)CNC1=O [indium-111 labelled]  tumour to tissue ratio (athymic nude mice, female, U-87 MG glioma xenograft, tumour and liver; intravenous, 24 h; relative to: tumour over liver): 3.1 ± 0.47
Cc1nc(=O)c2cc(CN(C)c3ccc(C(=O)NCCCS(N)(=O)=O)s3)ccc2[nH]1  Hill slope (4'-phosphopantetheinyl transferase PptT; enzyme activity, inhibitor, fluorescence polarization): 1
CCOC(=O)C1C(OC(c2ccc(Cl)cc2)c2ccc(Cl)cc2)CC2CCC1N2C (single isomer, unassigned)  Ki (rat NMDA receptor PCP site; binding, radioligand displacement; inactive if below 75% at 10000 nM, with: [3H]TCP): inactive
CCCCCn1cc(C(=O)c2ccc3c(c2)CC(C)(C)C3)c2ccccc21  Emax (CNR1 I267L; Gαi1 engagement, agonist, BRET; relative to: reference agonist at wild-type CB1): 26.9 ± 2.9%
Cc1nc(=O)c2cc(CN(C)c3ccc(C(=O)NCCCc4nn[nH]n4)s3)ccc2[nH]1  Hill slope (4'-phosphopantetheinyl transferase PptT; enzyme activity, inhibitor, fluorescence polarization): 1.2
CCCCCn1cc(C(=O)c2cccc3c2CC(C)(C)C3)c2ccccc21  Emax (CNR1 (Homo sapiens, UniProt P21554, L193I); Gαi1 engagement, agonist, BRET; relative to: reference agonist at wild-type CB1): 83.6 ± 3%
CCN(Cc1ccccc1)C(=O)CCc1nc(CN2CCN(C(=O)Cc3ccc(OC)c(OC)c3)CC2)no1  current density (Voltage-gated potassium channel, KQT; KCNQ2(Kv7.2)/KCNQ3(Kv7.3) (KCNQ3/KCNQ2, Homo sapiens, UniProt O43525+O43526); potassium current, opener, whole-cell patch clamp; CHO stable; 300 nM, -10 mV): 50.1 ± 7.05 pA/pF
Cc1nc(=O)c2cc(CN(C)c3ccc(C(=O)NCc4ccccn4)s3)ccc2[nH]1  Hill slope (4'-phosphopantetheinyl transferase PptT; enzyme activity, inhibitor, fluorescence polarization): 0.9
CC(C)C[C@H](NC(=O)[C@H](Cc1ccccc1)NC(=O)CNC(=O)CNC(=O)[C@@H](N)Cc1ccc(OC(C(=O)O)c2ccccc2[N+](=O)[O-])cc1)C(=O)O (some centres unmarked)  outward current amplitude (rat locus coeruleus neurons; K+ current, agonist; concentration not given): 5.6 ± 4 pA
CN(C)CC1CCCCC1(O)c1cccc(O)c1 (centres unmarked)  efflux ratio (human P-glycoprotein; Caco-2 TC7 monolayer; 100 µM, 3 h, apical pH 7.4, basolateral pH 7.4, with: cyclosporine A 10 µM; relative to: B-to-A over A-to-B): 1.2
CN[C@](C)(C[18F])C(=O)O  tracer uptake (SK-OV-3 tumour model; host not given, muscle; 15 min, tumour-bearing): 1.3 %ID/g

A few entries again:
CC(C)C[C@H](NC(=O)[C@H](Cc1ccccc1)NC(=O)CNC(=O)CNC(=O)[C@@H](N)Cc1ccc(OC(C(=O)O)c2ccccc2[N+](=O)[O-])cc1)C(=O)O (some centres unmarked)  outward current amplitude (rat locus coeruleus neurons; K+ current, agonist; concentration not given): 5.6 ± 4 pA
CN(C)CC1CCCCC1(O)c1cccc(O)c1 (centres unmarked)  efflux ratio (human P-glycoprotein; Caco-2 TC7 monolayer; 100 µM, 3 h, apical pH 7.4, basolateral pH 7.4, with: cyclosporine A 10 µM; relative to: B-to-A over A-to-B): 1.2
